Assay results of several laboratories.
Every numbered part comes from another study and shows a few of its results, in no order.

Block 1 — method: RNA Bind-n-Seq; molecule type: RNA; medium: in vitro; tested at: 365 nM; relative to: no-protein control; reading: higher = stronger binding; quantity: RBNS enrichment (R)
Target: RNA binding protein fox-1 homolog 2, RRM domain, GST-SBP tag (RBFOX2, Homo sapiens, UniProt O43251-10, residues 100-194)
Notes: natural RNA segment, single round, ends assumed
All sequences stand within: GGGAGUUCUACAGUCCGACGAUC … UGGAAUUCUCGGGUGCCAA
Residues (chain): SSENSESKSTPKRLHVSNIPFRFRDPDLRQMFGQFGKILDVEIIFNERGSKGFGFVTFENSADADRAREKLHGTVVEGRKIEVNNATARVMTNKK
AUAGUAUUUCUAUAAUUAUGUAACGAGAAUAGUGUUGCACUGUAAUCUAUCAUAUAGAGCUAUAUGUAUGGAAAAUUUUGAUCAAUUUUUUAAGAAAUGUAUCCUGUUUG: 0.488
CUUAAAGCAGCAUACUUAUUUUUUGUUUAUUUAUUGUGAGCUUUUUACUUUAUUAAGAUUUUACAGCGAAACCCUUACAUGAGUAAUUGAAAUGAAAUUAAAUGAGAUUA: 0.843
CUGCCCUCCCUGACCCUAUAGCCCCAGGCCUCAUGGGGGGUAUGUGGGGAAGGGAUGGGGUAUCCCCAUGGAUGCUGGGAUGAGGACAGAGGAAGACCUGAUGGGGUCUC: 0.426
CAUACCUGUCACUGCUGGAGUCAAACUUAUAAAAAGCCUUAAGUGGAAAGUGUUCCAGACGGAGACUCUGAGUUAAUAGAGGAGUAGAAGCUGGUGUUAAAGUUCCCACG: 0.343
GGGCUGCACUCUGGGAGUGCUUACUCACAGUUUAUUUGCUUUUUUUAAAAAGGAGAUUAUUCUAAAACAUAAACUUAUUUGCAUAUAUUGGAGGAGCAUCCACUAUCAGU: 0.508
UCUCAUUUAUAAGUUAGACAUUCAUUCACUAGAACAUUUAUGCUCAGAAUCUUCCUUAAGAGGGUGUCCAGUAUUAACUUUGAUUGGGAUUAAUCCAGGCAAAAGAAGAG: 0.495
UUGUCAUUGUUACAUUCCAGUGUUUCUGCCUCUUGGCAUGCUUAAAGCACGGCUUACUUCAUCUGCUCCUUACACACUAAAAUGCUCUUAGUGUGCUCAACUACAGAGAU: 0.67
CCUGUUGAAGUCACCGAGUCAGCUGAAUAAAGACUGCGCACAGGAGAAUUGCCCUAUACCUGAGCCUCAACCUUCUGGGGGAAGGGAACUAGAUAACAUGCUUUGUGUGU: 0.462

Block 2 — method: protein-binding microarray; molecule type: double-stranded DNA, one strand shown; medium: in vitro; tested at: 250 nM; notes: 60-bp whole probe; added: salmon DNA 0.4 mg/ml; relative to: random background probes; reading: higher = stronger binding; quantity: log fluorescence; all sequences stand within: GCCTAGCAC … GTCTTGATTCGCTTGACGCTGCTG
Target: Interferon regulatory factor 7, full length, phosphomimetic (IRF7, Homo sapiens, UniProt Q92985, residues 1-503, S101K/S471D/S472D/S475D/S476D/S477D/S483D/S484D/S487D)
Residues (chain): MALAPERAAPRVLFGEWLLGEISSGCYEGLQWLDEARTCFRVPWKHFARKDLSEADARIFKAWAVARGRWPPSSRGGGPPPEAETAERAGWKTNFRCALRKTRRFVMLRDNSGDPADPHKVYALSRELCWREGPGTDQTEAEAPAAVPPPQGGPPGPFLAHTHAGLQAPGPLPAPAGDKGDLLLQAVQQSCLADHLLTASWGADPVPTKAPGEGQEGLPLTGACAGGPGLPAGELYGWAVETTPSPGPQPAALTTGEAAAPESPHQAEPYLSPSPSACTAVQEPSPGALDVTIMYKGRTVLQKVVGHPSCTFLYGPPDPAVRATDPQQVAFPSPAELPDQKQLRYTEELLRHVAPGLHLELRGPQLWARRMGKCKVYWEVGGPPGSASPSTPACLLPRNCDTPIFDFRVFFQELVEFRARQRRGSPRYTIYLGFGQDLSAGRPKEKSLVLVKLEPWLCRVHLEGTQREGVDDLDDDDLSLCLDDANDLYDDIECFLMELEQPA
TTAGATATCGGGACTGTATTAGTGCTA: 0.292 z-score
TTAGGTTTCGGGTCTCGGTTAGTGCTA: 10.7 z-score
TTAGGTTTCCGGACTGGGTTAGTGCTA: 0.717 z-score
TTAGGTTTAGGTCTCGGTTAGTGCTAG: 1.33 z-score
TTATGACTGGACTATCGGTTAGTGCTA: -0.151 z-score
GACGATTTTAGTTTCGAGACGTGCTAG: 5.55 z-score
CTTACTTTATGTAGGAAGTCGTGCTAG: 0.281 z-score
TTAGGTTTCGGACTGGGTGAGTGCTAG: 3.91 z-score
GAGGGTCTCGGACTGGGGACGTGCTAG: -0.417 z-score
TTAGGTATAGGTATCGGTTAGTGCTAG: 0.839 z-score
TTTTTTTCCTAATTGAACCCGTGCTAG: 2.36 z-score
TTTCTGATCCATTTTGGTTTGTGCTAG: 1.06 z-score
TTAGGACTGGGGGTTCGGTTAGTGCTA: 1.06 z-score
TTAGATCTCAGTAGCGATTAGTGCTAG: 0.0554 z-score
TCTCTTTTTGCTTTCTTTATGTGCTAG: 2.48 z-score
GACGGAATGGACACTGGGGACGTGCTA: -0.606 z-score
TCCCAATTCTCTTTTCACTTGTGCTAG: 1.7 z-score
TCATTACTAAAATTTCATACTGTGCTA: 1.15 z-score

Block 3 — method: RNA Bind-n-Seq; molecule type: RNA; medium: in vitro; tested at: 100 nM; relative to: input RNA pool; reading: higher = stronger binding; quantity: bound/input enrichment
Target: RING finger protein unkempt homolog, zinc fingers 1-6, SBP tag (UNK, Homo sapiens, UniProt Q9C0B0, residues 30-357)
Sequence of UniProt Q9C0B0 (30-357, looked up): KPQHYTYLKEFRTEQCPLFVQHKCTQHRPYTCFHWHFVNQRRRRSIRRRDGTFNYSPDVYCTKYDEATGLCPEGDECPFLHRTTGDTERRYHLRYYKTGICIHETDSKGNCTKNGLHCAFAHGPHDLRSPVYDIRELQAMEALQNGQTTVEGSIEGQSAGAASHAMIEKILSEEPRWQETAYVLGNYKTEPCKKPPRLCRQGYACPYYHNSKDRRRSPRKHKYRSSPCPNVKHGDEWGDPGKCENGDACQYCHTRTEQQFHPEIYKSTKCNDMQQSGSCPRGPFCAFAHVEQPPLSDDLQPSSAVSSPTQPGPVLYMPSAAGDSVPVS
Notes: RNA with constant flanks, vertebrate orthologous sites, ends assumed
All sequences stand within: GGGAGUUCUACAGUCCGACGAUC … CAACAGAGGAUUGAGCAUCA
GGUAUCUUUUGCAUGGAAUAUUGAACACUUCCAUGCUUACGUUAAAUGCUAAAAUUAAGCUGCAGUACUUUUUCUGCAGUAUUGUUUGCUUGUGUUUAAAGUCAGACAGGAUAAAUGUGC: 0.583 ratio
AGUAGGAUUAAUUACAUAAUACAAAAGUUGCAGUUGAAAGGAUAUUCAAGUAUGUGUUGGUAGUUACUAAAAGAAUUAUAGCUGUUAUUGCCUUGUAUUUAUAGCCCUUGUUUCAGGUUU: 1.43 ratio
CAUUAACACACAAAAUGUCUCCAGGGGGGUAUUAGAUUUGAUUUCUUACAUAUAAAACAAACAAAACCAACCAACGAACCAUUUUUAAAGUAGAAGAGGGUUUUUAAUAGAAAAUGACAU: 1.54 ratio
UCGUUGUAUUGCAAAAAUCACCCUAGUUUUAAACUAGCCUCAGUGAUAACUAGUCUGUGCUAGUAGAAUCAUUUACUAUUACCUUUUAAAUUAUCUGCUUUGUCCGAUACCUGAAACCAA: 0.803 ratio
CAUUGUACCCUGCUGUAUAAUAAACAAUCUUAGACAUUUAUCAAUUGUUGAUACAAAUGUUAGUCCCUAACCACUUUUUAUAUGUUUUAAAUUUUUGAAAUUCAAGUGUACCUGCCAUAA: 1.99 ratio
AGAUUUGGACCUUGGAGCUGAACCAGGGAACUAGAAAAGUAAAACAAACUUGUAAAAUGAUAGCCAUGUGCAGCUGUACAACAGUACUAUCACUAACACCUGUGUUAAAAUAUUUAUACA: 0.66 ratio
GAAGUUCCCCAUUGUCACUGAGAACCACCAAAUUUGACUUUCACAUUUGGUCUCAGAAUUUAGGUUCCUGCCCUGUUGUUUUUCUUUCUUUUUCUUAAAACAAACAAACAAACAAACAGU: 0.342 ratio
CGUUCAGUCCCCUGGGCCGGGACGGGUUUUUUUUUAAGUCUGAAAUUUAAACUGUGCUUGUAGGAGACUGUAACCUUUUUGUCUCUCCUUUUUUUUUUUUUUUUUAACAAACACCCUCCA: 0.944 ratio

Block 4 — method: protein-binding microarray; molecule type: double-stranded DNA, one strand shown; medium: in vitro; tested at: not given; reading: higher = stronger binding; quantity: E-score
Target: TATA-box-binding protein 1 (TBP1, Arabidopsis thaliana, UniProt P28147, residues 1-200, full length assumed)
Notes: k-mer, scored over probes, only values ≥0.25
Target sequence (chain): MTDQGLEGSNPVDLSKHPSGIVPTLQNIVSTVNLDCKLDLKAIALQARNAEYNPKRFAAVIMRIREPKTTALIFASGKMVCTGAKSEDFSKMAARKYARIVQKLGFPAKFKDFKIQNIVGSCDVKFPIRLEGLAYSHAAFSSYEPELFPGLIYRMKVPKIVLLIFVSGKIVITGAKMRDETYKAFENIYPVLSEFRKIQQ
ACAAATA: 0.277
AGTATAT: 0.449
ATTATAA: 0.464
CATAATA: 0.335
ATAAAAA: 0.449
ATATACG: 0.399
CAATATA: 0.429
CCGTATA: 0.276
AGATAAA: 0.362
CTTATAA: 0.469

For quick reference, copied from above (block 2):
GACGATTTTAGTTTCGAGACGTGCTAG: 5.55 z-score
TTAGGTTTCGGGTCTCGGTTAGTGCTA: 10.7 z-score
TTAGGACTGGGGGTTCGGTTAGTGCTA: 1.06 z-score
TCTCTTTTTGCTTTCTTTATGTGCTAG: 2.48 z-score
TTTCTGATCCATTTTGGTTTGTGCTAG: 1.06 z-score
